Measurements of several laboratories.
A part holds a random share of what one study measured. “And” joins repeats or separate records; there may be more than shown. Numbers after ± are the reported error.
Sequence of UniProt Q06187 (whole entry, looked up): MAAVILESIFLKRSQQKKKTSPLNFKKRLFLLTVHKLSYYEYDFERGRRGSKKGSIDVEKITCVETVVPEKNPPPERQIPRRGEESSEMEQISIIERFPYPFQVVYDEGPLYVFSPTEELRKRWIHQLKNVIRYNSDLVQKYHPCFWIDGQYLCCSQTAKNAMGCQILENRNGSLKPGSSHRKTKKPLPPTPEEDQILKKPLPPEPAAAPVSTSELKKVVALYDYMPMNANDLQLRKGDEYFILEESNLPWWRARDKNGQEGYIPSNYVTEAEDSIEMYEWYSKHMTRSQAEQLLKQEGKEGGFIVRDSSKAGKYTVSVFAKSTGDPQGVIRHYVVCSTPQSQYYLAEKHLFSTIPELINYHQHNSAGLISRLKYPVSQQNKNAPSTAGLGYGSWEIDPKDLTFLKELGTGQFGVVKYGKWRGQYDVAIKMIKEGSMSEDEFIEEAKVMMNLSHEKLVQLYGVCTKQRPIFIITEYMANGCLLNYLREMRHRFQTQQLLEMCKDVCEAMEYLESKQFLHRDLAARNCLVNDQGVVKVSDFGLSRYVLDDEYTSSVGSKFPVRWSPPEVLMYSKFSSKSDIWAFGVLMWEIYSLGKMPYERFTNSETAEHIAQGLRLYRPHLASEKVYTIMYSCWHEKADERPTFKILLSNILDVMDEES

Sample 1
Compound: CCN1/C(=C/C=C2\CCCC(/C=C/C3=[N+](CC)c4ccccc4C3(C)C)=C2NCCCCCCCCN2CCC(Nc3nc4ccccc4n3Cc3ccc(F)cc3)CC2)C(C)(C)c2ccccc21
Cell line: U-87 MG
Tested at: concentration not given
Baseline: DMSO
refers to	log2 fold change
TVP23B mRNA	0.807
TGDS mRNA	0.937
SSH2 mRNA	-0.911
ANK1 mRNA	-2.74
RIN1 mRNA	-2.3
IL1A mRNA	3.15
MYRF mRNA	-1.61
ZSWIM4 mRNA	1.22
ERAP2 mRNA	-0.947
TUBB6 mRNA	-1.43
ELOVL7 mRNA	1.39
ANK2 mRNA	0.926
MTRNR2L8 mRNA	1.25
FLNC mRNA	-0.892
DDIT3 mRNA	2.46
ITGA1 mRNA	1.02

Sample 2
SMILES: Cc1ccc(O)c(C)c1-c1cnc2[nH]c(-c3cnc(N4CCC5(CC4)CC(N4CCN(c6ccc(NC7CCC(=O)NC7=O)cc6F)CC4)CO5)nc3)cc2c1C#N (centres unmarked)
Target: Membrane-associated tyrosine- and threonine-specific cdc2-inhibitory kinase (PKMYT1, Homo sapiens, UniProt Q99640)
Mode: degrader
Construct (Q99640 1-499): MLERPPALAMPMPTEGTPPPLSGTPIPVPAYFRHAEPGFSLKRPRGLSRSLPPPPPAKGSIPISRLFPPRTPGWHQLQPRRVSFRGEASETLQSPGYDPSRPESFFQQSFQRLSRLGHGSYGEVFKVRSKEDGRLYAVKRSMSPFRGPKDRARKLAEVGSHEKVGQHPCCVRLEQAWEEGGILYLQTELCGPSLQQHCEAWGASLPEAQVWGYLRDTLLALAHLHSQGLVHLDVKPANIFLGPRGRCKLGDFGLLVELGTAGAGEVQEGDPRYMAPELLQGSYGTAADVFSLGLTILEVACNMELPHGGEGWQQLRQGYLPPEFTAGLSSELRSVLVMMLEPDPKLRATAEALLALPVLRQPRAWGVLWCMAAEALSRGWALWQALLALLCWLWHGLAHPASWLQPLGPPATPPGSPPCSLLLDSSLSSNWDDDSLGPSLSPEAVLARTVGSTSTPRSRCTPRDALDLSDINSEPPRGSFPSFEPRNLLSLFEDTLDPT
cell line	DC50 [nM]
MDA-MB-157	1.1
HuCCT-1	0.7
HCC1599	0.5

Sample 3
Organism: Leishmania donovani
Cell line: THP-1
Strain: DD8 promastigote
Baseline: THP-1 cytotoxicity over promastigote activity
Structure (SMILES)	selectivity ratio
Cc1ccc(Nc2c3c(nc4ccccc24)CCC3)cc1	3.64
Clc1ccc2nc3c(c(Nc4ccc5c(c4)OCCO5)c2c1)CCC3	28.6
CCOC(=O)c1ccc(Nc2c3c(nc4ccccc24)CCC3)cc1	2.91
CC(=O)c1cccc(Nc2c3c(nc4ccccc24)CCC3)c1	5.68
Fc1ccc(Nc2c3c(nc4ccccc24)CCC3)cc1	3.03
Fc1cccc(Nc2c3c(nc4ccccc24)CCC3)c1	1.34
COC(=O)c1cccc(Nc2c3c(nc4ccccc24)CCC3)c1	4.24
Cc1ccc2nc3c(c(Nc4ccc(O)cc4)c2c1)CCC3	5.86

Mixed results
KRAS G12D GDP-bound: GTPase KRas, GDP-bound (KRAS, Homo sapiens, UniProt P01116, G12D)
SMILES	tested on	assay	test system	conditions	measurement	result
Cc1ncsc1-c1ccc(C2(NC(=O)C3CC(O)CN3C(=O)C(NC(=O)c3ccc(COc4c(-c5c(C)c(F)cc6[nH]ncc56)c(C5CC5)cc5c(N6CC7CC6CN7)nc(OC6CCOCC6)nc45)cc3)C(C)C)CC2)cc1 (centres unmarked)	KRAS G12D GDP-bound	binder, single-cycle SPR		binary, without VCB	dissociation rate constant (kd)	0.00941 s⁻¹ and 0.0101 s⁻¹ and 0.00883 s⁻¹
CC(C)(C=C(C#N)C(=O)N1CCCC1Cn1nc(-c2ccc(Oc3ccccc3)cc2F)c2c(N)ncnc21)N1CCOCC1 (centres unmarked)	BTK (Homo sapiens, UniProt Q06187)	fluorescence competition		room temperature	residence time	3.4 ± 0.3 h
Cc1ncsc1-c1ccc(C2(NC(=O)C3CC(O)CN3C(=O)C(NC(=O)c3ccc(COc4c(-c5c(C)c(F)cc6[nH]ncc56)c(C5CC5)cc5c(N6CC7CC6CN7)nc(OC6CCOCC6)nc45)cc3)C(C)(C)C)CC2)cc1 (centres unmarked)	von Hippel-Lindau disease tumor suppressor, with Elongin B/C (VHL, Homo sapiens, UniProt P40337)	SPR, single-cycle	immobilized VCB complex	binary	Kd	2560 nM and 1310 nM and 904 nM
Cc1ncsc1-c1ccc(C(CO)NC(=O)C2CC(O)CN2C(=O)C(NC(=O)c2ccc(COc3c(-c4c(C)c(F)cc5[nH]ncc45)c(C4CC4)cc4c(N5CC6CC5CN6)nc(OC5CCOCC5)nc34)cc2)C(C)C)cc1 (centres unmarked)	KRAS G12D GDP-bound	SPR, single-cycle	immobilized KRAS G12D	binary, geometric mean	koff	0.00794 s⁻¹
CCN1CCN(Cc2ccc(COc3c(-c4c(C)c(F)cc5[nH]ncc45)c(C4CC4)cc4c(N5C[C@@H]6C[C@H]5CN6)nc(OC5CCOCC5)nc34)cc2)C(=O)C1	AsPC-1 (KRAS G12D)	cell viability, CellTiter-Glo			IC50	178 nM and 296 nM

Some of these lines once more (mixed results):
SMILES	tested on	assay	test system	conditions	measurement	result
Cc1ncsc1-c1ccc(C2(NC(=O)C3CC(O)CN3C(=O)C(NC(=O)c3ccc(COc4c(-c5c(C)c(F)cc6[nH]ncc56)c(C5CC5)cc5c(N6CC7CC6CN7)nc(OC6CCOCC6)nc45)cc3)C(C)C)CC2)cc1 (centres unmarked)	KRAS G12D GDP-bound	binder, single-cycle SPR		binary, without VCB	dissociation rate constant (kd)	0.00941 s⁻¹ and 0.0101 s⁻¹ and 0.00883 s⁻¹
CC(C)(C=C(C#N)C(=O)N1CCCC1Cn1nc(-c2ccc(Oc3ccccc3)cc2F)c2c(N)ncnc21)N1CCOCC1 (centres unmarked)	BTK (Homo sapiens, UniProt Q06187)	fluorescence competition		room temperature	residence time	3.4 ± 0.3 h
Cc1ncsc1-c1ccc(C2(NC(=O)C3CC(O)CN3C(=O)C(NC(=O)c3ccc(COc4c(-c5c(C)c(F)cc6[nH]ncc56)c(C5CC5)cc5c(N6CC7CC6CN7)nc(OC6CCOCC6)nc45)cc3)C(C)(C)C)CC2)cc1 (centres unmarked)	von Hippel-Lindau disease tumor suppressor, with Elongin B/C (VHL, Homo sapiens, UniProt P40337)	SPR, single-cycle	immobilized VCB complex	binary	Kd	2560 nM and 1310 nM and 904 nM
Cc1ncsc1-c1ccc(C(CO)NC(=O)C2CC(O)CN2C(=O)C(NC(=O)c2ccc(COc3c(-c4c(C)c(F)cc5[nH]ncc45)c(C4CC4)cc4c(N5CC6CC5CN6)nc(OC5CCOCC5)nc34)cc2)C(C)C)cc1 (centres unmarked)	KRAS G12D GDP-bound	SPR, single-cycle	immobilized KRAS G12D	binary, geometric mean	koff	0.00794 s⁻¹
CCN1CCN(Cc2ccc(COc3c(-c4c(C)c(F)cc5[nH]ncc45)c(C4CC4)cc4c(N5C[C@@H]6C[C@H]5CN6)nc(OC5CCOCC5)nc34)cc2)C(=O)C1	AsPC-1 (KRAS G12D)	cell viability, CellTiter-Glo			IC50	178 nM and 296 nM
